Results from different studies.
A part holds a random share of what one study measured.
UniProt Q9UKI8, sequence (whole entry, looked up): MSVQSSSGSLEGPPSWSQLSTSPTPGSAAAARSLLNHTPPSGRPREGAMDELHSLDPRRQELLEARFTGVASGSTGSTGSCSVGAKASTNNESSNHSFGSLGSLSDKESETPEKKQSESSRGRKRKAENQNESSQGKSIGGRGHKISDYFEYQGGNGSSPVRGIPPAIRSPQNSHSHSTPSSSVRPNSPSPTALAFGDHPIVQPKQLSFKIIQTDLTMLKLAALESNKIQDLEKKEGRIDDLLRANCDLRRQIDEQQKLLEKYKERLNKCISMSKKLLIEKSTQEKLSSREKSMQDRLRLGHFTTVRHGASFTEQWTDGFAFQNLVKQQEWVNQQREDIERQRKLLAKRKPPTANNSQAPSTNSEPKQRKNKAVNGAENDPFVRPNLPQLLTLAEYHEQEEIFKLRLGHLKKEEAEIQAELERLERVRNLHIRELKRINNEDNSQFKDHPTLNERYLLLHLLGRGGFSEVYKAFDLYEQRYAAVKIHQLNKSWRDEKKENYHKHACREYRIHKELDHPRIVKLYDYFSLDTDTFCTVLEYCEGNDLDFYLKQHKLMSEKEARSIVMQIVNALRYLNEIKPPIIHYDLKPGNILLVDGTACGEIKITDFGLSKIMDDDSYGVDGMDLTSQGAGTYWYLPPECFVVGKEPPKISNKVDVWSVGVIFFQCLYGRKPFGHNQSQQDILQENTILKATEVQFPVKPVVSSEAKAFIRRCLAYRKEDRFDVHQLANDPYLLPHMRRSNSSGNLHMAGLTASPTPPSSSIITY
UniProt Q14164, sequence (whole entry, looked up): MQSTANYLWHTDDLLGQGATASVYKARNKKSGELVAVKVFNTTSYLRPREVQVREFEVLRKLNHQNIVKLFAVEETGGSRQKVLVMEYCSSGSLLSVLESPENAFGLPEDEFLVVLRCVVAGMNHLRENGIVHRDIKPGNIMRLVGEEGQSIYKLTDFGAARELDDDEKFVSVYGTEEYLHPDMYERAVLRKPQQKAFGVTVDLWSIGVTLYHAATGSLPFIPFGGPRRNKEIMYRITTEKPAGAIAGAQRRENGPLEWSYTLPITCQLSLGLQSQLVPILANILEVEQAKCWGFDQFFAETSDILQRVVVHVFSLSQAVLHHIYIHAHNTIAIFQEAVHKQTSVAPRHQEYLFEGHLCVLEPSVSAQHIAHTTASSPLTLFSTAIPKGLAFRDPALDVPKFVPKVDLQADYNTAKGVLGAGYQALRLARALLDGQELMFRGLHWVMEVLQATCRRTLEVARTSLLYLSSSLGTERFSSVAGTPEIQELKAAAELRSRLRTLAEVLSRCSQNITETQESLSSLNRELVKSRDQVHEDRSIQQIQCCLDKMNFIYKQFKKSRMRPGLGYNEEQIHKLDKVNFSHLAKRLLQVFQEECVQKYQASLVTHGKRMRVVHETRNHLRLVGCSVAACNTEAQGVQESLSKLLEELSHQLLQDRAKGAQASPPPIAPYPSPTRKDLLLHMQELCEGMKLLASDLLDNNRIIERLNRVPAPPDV
UniProt P32298, sequence (whole entry, looked up): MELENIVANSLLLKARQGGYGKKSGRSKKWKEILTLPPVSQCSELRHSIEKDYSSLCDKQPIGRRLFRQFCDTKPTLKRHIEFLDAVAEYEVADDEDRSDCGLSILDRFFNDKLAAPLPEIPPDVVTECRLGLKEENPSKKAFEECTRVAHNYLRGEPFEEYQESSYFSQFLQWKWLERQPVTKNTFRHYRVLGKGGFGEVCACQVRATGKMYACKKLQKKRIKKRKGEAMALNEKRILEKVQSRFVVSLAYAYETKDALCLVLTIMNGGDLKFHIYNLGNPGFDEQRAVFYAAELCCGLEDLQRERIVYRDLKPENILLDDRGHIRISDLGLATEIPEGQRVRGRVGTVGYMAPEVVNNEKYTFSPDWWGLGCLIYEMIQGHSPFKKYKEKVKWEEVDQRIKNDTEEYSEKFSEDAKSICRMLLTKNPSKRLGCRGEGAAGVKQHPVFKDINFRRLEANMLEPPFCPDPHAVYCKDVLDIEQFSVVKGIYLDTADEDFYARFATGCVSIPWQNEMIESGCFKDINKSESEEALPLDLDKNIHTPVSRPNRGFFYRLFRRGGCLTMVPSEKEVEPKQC
UniProt P48729, sequence (whole entry, looked up): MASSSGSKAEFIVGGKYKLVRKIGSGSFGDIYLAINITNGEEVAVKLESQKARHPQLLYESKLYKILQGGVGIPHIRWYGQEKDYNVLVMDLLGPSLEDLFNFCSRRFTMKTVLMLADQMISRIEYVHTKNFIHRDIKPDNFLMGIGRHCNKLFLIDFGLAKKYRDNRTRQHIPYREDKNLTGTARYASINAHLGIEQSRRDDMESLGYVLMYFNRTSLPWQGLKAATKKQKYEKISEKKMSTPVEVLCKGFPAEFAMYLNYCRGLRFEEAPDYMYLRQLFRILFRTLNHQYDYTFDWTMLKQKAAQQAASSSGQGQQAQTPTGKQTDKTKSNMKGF

Series 1
Target: Serine/threonine-protein kinase 3 (STK3, Homo sapiens, UniProt Q13188)
UniProt Q13188, sequence (whole entry, looked up): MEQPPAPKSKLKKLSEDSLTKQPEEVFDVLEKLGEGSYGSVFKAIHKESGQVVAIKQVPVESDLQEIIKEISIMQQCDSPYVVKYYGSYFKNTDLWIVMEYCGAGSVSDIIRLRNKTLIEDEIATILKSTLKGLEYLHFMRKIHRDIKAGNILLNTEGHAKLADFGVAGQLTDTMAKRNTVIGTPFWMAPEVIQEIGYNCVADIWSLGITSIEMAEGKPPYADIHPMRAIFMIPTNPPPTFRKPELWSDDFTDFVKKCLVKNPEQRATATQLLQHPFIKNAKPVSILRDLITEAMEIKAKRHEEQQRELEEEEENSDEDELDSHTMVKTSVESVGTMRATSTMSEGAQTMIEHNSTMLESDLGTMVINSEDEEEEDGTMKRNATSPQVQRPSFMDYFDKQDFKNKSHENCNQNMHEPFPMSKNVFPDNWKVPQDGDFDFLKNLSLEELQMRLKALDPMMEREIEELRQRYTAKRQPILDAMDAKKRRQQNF
Read-out: enzyme activity
Action: inhibitor
Concentration: 0.5 µM
Relative to: control
Structure (SMILES) | remaining activity [%]
CCOc1cc2ncnc(Nc3cccc(Br)c3)c2cc1OCC | 99.5
Cc1nc(Nc2ncc(C(=O)Nc3c(C)cccc3Cl)s2)cc(N2CCN(CCO)CC2)n1 | 90.6
O=C(Nc1ccc(Cl)cc1)c1ccccc1NCc1ccncc1 | 94.2
COc1cc2ncnc(N3CCN(C(=O)Nc4ccc(Oc5ccccc5)cc4)CC3)c2cc1OC | 93.3
CC(C)c1nn(-c2c(Cl)cccc2Cl)c2nc(Cc3ccc(OCCO)cc3)[nH]c(=O)c12 | 93.5
COc1cc2ncc(-c3ccccc3)nc2cc1OC | 95.7
Cc1ccc(NC(=O)c2ccc(CN3CCN(C)CC3)cc2)cc1Nc1nccc(-c2cccnc2)n1 | 97.9
CC(C)[C@H](CO)Nc1nc(Nc2cccc(Cl)c2)c2ncn(C(C)C)c2n1 | 90.8
COc1cc2ncnc(Nc3ccc(OCc4ccccc4)cc3)c2cc1OC | 97.6
Cn1cc(/C=C2\C(=O)Nc3ccc(S(N)(=O)=O)cc32)c2ccccc21 | 23.4
CC(=O)O/N=C1/C(c2c(O)[nH]c3cc(Br)ccc23)=Nc2ccccc21 | 39.5
Nc1[nH]nc2nnc(-c3c(-c4ccccc4)nn4ccccc34)cc12 | 102
COc1ccc(Cl)cc1NC(=O)Nc1cc(C)nc2ccccc12 | 98.9
Cn1cnc2cc3c(Nc4cccc(Br)c4)ncnc3cc21 | 89.9
C[S+]([O-])c1ccc(-c2nc(-c3ccncc3)c(-c3ccc(F)cc3)[nH]2)cc1 (centres unmarked) | 102
O=C1NC(=O)/C(=C/c2ccc3nccnc3c2)S1 | 104
CCC(=O)Nc1ccc2ncnc(Nc3cccc(Br)c3)c2c1 | 88
COc1ccc(-c2cnc3c(-c4ccsc4)cnn3c2)cc1 | 97.7
O=c1cc(N2CCOCC2)oc2c1ccc1ccccc12 | 99.1
CN(C)CCCn1cc(C2=C(c3c[nH]c4ccccc34)C(=O)NC2=O)c2ccccc21 | 44.2

Series 2
Target: D(3) dopamine receptor (DRD3, Homo sapiens, UniProt P35462)
UniProt P35462, sequence (whole entry, looked up): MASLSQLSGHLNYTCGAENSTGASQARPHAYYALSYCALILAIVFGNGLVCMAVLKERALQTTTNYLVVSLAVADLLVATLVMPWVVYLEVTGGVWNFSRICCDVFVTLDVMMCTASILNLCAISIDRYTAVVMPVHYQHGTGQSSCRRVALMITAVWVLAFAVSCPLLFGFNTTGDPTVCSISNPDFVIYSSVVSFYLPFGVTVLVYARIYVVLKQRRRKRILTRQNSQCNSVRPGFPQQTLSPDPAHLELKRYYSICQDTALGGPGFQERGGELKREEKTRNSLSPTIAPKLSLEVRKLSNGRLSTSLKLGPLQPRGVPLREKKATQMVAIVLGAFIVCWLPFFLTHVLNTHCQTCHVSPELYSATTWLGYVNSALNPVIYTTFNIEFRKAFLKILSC
Read-out: binding
Method: radioligand binding
Concentration: 10 µM
Structure (SMILES) | inhibition [%]
Cc1c(N2CCCC2)nc2ccc(Br)cc2c1C(=O)NC[C@H](CCC(=O)O)c1ccccc1Cl | -15.8
O=C(Nc1ccc(-n2nc(-c3cccnc3)cc2C(F)(F)F)cn1)c1ccc(-c2ccccc2)c(F)c1 | 8.38
COc1cc(-c2cn(C3CCc4ccccc4N(CC(F)(F)F)C3=O)nn2)ccc1-n1ccc(C)n1 (centres unmarked) | 22
O=C(Nc1cnc(Oc2ccc(F)cc2)nc1)N1CCc2ncccc2[C@@H]1c1ccc(F)cc1 | -4.36
CC1=C(C#N)[C@@H](c2ccc3[nH]nc(C)c3c2)C(C#N)=C(c2ccc(Cl)cc2)N1 | -18.4
CCOCCn1cc(C(=O)Nc2ccc(-n3nc(-c4cccnc4)cc3C(F)(F)F)cn2)ccc1=O | -13.1
O[C@]1(C(F)(F)F)CCCC[C@H]1Nc1ccc(F)cc1 | -6.61
Nc1c(C(=O)NCc2ccc(C(=O)NCCCC3CCCCC3)cc2)cnn1-c1ccccc1 | 21.2
O=C1CCc2cc(Nc3cc(OC4CCOCC4)c([N+](=O)[O-])cc3Cl)ccc2N1 | 35.4
C[C@@]1(Cc2ccc(C#N)cc2)C(=O)N(c2cc(Cl)cc(Cl)c2)c2ncc(C(=O)NC3(c4nc(C5CCC5)no4)CC3)n21 | 9.55
Cc1c[nH]c2nccc(Oc3c(F)cc(Nc4cc(Cl)nc(N)n4)cc3F)c12 | -5.8
CC(C)CC(=O)N1CCc2nc(-c3ccc(Br)cc3)nc(N(C)Cc3ccccc3)c2C1 | 5.44
Cc1nc(Cc2cccc(C(F)(F)F)c2)sc1-c1ccc(C(N)=O)nc1 | 6.21
Cc1cc(C)c(-n2ccn3nc(-c4cccnc4)cc23)cc1NC(=O)c1cc(C#N)cc(S(F)(F)(F)(F)F)c1 | -5.85

Series 3
SMILES: Cc1ccc(NC(=O)c2ccnc(C(F)(F)F)c2)cc1-c1cc(OCCO)nc(N2CCOCC2)c1
Concentration: 1 µM
target | method | refers to | setting | relative to | remaining binding [%]
TBK1 (Homo sapiens, UniProt Q9UHD2) | competitive binding panel |  |  | vehicle | 78
MAP3K20 (Homo sapiens, UniProt Q9NYL2) | competitive binding panel | ZAK |  | vehicle | 91
BRSK2 (Homo sapiens, UniProt Q8IWQ3) | competitive binding panel |  |  | vehicle | 100
PRKACB (Homo sapiens, UniProt P22694) | competitive binding, scanMAX |  | PKAC-beta, 1000 nM |  | 100
NEK4 (Homo sapiens, UniProt P51957) | competitive binding panel |  |  | vehicle | 99
KDR (Homo sapiens, UniProt P35968) | competitive binding |  | VEGFR2 |  | 85
GRK4 (Homo sapiens, UniProt P32298) | competitive binding panel |  |  | vehicle | 99
TLK1 (Homo sapiens, UniProt Q9UKI8) | competitive binding panel |  |  | vehicle | 87
EGFR (Homo sapiens, UniProt P00533) | competitive binding panel |  |  | vehicle | 67
IKBKE (Homo sapiens, UniProt Q14164) | competitive binding |  | IKK-epsilon |  | 94
Myosin-IIIa (MYO3A, Homo sapiens, UniProt Q8NEV4) | competitive binding panel |  |  | vehicle | 98
CSNK1A1 (Homo sapiens, UniProt P48729) | competitive binding panel |  |  | vehicle | 98

Series 4
Structure (SMILES): CC(C)n1cnc(-c2ccc(F)cc2)c1-c1ncc(C(=O)Nc2ccc(N3CCN(C)CC3)cc2)[nH]1
Method: phase 2a clinical trial
Host: idiopathic pulmonary fibrosis patients
refers to | dose | setting | relative to | patients with TEAEs
respiratory tract infection | 60 mg once daily | grade 1 maximum intensity | patients | 1%
infections and infestations | dose not given | grade 2, all drug arms | patients | 10%
neoplasms (SOC) | 30 mg once daily | grade 4 maximum intensity |  | 0%
investigations (SOC) | dose not given | grade 1, all drug arms | patients | 20%
neoplasms (SOC) | 60 mg once daily | grade 2 maximum intensity |  | 0%
infections and infestations | 60 mg once daily | grade 2 maximum intensity | patients | 3%
reproductive and breast disorders | 30 mg once daily | grade 1 maximum intensity | patients | 1%
reproductive and breast disorders | 30 mg once daily | grade 3 maximum intensity |  | 0%
reproductive and breast disorders | dose not given | grade 2, all drug arms |  | 0%
neoplasms (SOC) | dose not given | grade 5, all drug arms |  | 0%
infections and infestations | dose not given | grade 3, all drug arms | patients | 5%
neoplasms (SOC) | 30 mg once daily | grade 5 maximum intensity |  | 0%
reproductive and breast disorders | 60 mg once daily | grade 2 maximum intensity |  | 0%

A few entries again (series 2):
Structure (SMILES) | inhibition [%]
CC1=C(C#N)[C@@H](c2ccc3[nH]nc(C)c3c2)C(C#N)=C(c2ccc(Cl)cc2)N1 | -18.4
CCOCCn1cc(C(=O)Nc2ccc(-n3nc(-c4cccnc4)cc3C(F)(F)F)cn2)ccc1=O | -13.1
O[C@]1(C(F)(F)F)CCCC[C@H]1Nc1ccc(F)cc1 | -6.61
Nc1c(C(=O)NCc2ccc(C(=O)NCCCC3CCCCC3)cc2)cnn1-c1ccccc1 | 21.2
O=C1CCc2cc(Nc3cc(OC4CCOCC4)c([N+](=O)[O-])cc3Cl)ccc2N1 | 35.4
C[C@@]1(Cc2ccc(C#N)cc2)C(=O)N(c2cc(Cl)cc(Cl)c2)c2ncc(C(=O)NC3(c4nc(C5CCC5)no4)CC3)n21 | 9.55
Cc1c[nH]c2nccc(Oc3c(F)cc(Nc4cc(Cl)nc(N)n4)cc3F)c12 | -5.8
CC(C)CC(=O)N1CCc2nc(-c3ccc(Br)cc3)nc(N(C)Cc3ccccc3)c2C1 | 5.44
Cc1nc(Cc2cccc(C(F)(F)F)c2)sc1-c1ccc(C(N)=O)nc1 | 6.21
